{"data": "Measurements collected from several papers", "note": "Numbered parts are unrelated; each lists some results of a single study.", "UniProt P35968, sequence (whole entry, looked up)": "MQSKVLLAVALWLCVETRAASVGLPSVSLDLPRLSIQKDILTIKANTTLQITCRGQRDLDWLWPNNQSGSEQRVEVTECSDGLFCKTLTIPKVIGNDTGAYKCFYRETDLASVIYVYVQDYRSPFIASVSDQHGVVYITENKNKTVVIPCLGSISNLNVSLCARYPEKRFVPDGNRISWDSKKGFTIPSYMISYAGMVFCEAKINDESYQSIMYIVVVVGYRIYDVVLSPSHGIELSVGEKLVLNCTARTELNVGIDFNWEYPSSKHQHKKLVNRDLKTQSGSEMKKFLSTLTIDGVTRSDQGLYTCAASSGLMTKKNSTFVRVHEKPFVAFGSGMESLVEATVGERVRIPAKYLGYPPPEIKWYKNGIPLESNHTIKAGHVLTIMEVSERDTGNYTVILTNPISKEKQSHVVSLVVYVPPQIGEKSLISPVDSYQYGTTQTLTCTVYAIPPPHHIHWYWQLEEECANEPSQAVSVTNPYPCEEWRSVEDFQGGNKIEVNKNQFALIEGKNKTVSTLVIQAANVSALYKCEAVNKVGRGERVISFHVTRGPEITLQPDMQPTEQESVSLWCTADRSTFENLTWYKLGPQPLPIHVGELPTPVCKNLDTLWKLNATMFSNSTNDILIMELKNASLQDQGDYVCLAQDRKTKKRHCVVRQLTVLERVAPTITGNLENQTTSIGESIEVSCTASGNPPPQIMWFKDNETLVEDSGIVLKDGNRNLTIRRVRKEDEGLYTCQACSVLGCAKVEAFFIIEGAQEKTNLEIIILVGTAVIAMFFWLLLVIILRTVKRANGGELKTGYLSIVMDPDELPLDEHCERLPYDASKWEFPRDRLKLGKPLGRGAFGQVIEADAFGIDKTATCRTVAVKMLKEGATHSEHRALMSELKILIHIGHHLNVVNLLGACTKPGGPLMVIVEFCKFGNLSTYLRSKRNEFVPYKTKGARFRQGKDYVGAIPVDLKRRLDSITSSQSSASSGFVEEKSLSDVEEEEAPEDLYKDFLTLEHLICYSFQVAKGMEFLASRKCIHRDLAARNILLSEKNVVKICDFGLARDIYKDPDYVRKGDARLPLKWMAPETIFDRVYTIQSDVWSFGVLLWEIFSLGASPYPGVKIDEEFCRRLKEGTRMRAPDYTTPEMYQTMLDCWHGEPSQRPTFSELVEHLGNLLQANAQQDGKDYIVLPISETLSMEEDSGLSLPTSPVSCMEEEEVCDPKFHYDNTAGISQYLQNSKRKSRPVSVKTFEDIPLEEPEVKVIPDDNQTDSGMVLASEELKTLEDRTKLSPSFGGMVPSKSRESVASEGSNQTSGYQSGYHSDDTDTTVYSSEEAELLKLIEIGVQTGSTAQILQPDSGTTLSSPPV", "UniProt P10721, sequence (whole entry, unmodified, looked up)": "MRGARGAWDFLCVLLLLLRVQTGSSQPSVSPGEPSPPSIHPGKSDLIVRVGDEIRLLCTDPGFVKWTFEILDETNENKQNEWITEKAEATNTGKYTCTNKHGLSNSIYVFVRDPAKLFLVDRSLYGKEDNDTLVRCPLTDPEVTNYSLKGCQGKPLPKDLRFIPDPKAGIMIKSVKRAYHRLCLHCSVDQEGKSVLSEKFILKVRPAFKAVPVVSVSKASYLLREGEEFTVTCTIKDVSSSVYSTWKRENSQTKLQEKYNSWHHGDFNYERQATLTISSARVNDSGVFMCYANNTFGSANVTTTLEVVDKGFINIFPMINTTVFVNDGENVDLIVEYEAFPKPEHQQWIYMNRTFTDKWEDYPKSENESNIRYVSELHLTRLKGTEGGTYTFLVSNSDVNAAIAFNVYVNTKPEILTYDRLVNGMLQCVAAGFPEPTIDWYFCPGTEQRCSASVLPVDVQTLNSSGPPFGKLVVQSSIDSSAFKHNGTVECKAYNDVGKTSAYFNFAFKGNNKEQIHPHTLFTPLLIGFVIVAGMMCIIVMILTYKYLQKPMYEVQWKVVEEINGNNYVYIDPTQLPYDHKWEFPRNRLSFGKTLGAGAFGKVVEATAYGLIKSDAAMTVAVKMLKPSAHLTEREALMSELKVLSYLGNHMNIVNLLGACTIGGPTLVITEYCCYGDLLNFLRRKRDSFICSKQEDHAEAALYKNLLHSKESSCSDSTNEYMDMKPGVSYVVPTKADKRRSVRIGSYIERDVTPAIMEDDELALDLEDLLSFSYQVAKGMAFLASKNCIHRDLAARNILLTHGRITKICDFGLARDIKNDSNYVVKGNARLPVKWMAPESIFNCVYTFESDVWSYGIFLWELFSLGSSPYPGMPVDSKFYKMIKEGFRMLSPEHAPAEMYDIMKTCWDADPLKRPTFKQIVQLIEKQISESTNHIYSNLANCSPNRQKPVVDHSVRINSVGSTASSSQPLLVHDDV", "UniProt Q15759, sequence (whole entry, looked up)": "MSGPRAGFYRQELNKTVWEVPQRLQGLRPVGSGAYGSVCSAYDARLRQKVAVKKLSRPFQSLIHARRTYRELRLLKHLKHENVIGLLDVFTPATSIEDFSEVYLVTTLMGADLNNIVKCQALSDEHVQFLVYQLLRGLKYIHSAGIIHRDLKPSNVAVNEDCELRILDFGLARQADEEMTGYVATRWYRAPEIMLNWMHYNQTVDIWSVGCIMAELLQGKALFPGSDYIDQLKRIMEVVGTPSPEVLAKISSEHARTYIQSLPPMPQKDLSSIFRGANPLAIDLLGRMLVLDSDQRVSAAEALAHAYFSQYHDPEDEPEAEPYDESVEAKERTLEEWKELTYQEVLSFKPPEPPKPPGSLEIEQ", "UniProt Q9UEE5, sequence (whole entry, looked up)": "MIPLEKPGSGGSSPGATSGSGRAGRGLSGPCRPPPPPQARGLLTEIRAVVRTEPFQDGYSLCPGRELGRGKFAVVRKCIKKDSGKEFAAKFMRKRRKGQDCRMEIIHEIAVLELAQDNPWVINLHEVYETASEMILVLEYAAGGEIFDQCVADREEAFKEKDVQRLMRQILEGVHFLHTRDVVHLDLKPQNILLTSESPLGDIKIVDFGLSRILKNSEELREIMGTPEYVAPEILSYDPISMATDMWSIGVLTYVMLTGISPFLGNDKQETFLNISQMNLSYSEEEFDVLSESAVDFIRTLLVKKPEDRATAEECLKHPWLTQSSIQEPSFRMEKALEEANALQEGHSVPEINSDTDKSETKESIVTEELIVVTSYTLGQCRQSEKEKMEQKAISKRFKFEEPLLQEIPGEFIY", "UniProt P42681, sequence (whole entry, looked up)": "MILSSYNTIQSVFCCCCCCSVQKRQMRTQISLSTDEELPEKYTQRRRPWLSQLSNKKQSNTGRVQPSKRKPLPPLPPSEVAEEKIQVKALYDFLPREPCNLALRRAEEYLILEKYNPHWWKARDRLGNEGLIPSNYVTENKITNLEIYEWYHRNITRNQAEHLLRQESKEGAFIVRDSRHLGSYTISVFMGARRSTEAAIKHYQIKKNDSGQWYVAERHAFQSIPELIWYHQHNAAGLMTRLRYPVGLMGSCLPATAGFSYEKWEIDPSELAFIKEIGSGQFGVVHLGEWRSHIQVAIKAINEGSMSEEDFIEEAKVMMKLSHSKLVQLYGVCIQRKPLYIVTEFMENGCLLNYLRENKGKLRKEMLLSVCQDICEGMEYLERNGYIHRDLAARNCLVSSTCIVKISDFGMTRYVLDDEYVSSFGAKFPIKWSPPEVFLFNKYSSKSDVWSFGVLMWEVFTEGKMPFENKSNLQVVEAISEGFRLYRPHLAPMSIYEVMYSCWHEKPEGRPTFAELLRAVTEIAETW", "UniProt Q13237, sequence (whole entry, looked up)": "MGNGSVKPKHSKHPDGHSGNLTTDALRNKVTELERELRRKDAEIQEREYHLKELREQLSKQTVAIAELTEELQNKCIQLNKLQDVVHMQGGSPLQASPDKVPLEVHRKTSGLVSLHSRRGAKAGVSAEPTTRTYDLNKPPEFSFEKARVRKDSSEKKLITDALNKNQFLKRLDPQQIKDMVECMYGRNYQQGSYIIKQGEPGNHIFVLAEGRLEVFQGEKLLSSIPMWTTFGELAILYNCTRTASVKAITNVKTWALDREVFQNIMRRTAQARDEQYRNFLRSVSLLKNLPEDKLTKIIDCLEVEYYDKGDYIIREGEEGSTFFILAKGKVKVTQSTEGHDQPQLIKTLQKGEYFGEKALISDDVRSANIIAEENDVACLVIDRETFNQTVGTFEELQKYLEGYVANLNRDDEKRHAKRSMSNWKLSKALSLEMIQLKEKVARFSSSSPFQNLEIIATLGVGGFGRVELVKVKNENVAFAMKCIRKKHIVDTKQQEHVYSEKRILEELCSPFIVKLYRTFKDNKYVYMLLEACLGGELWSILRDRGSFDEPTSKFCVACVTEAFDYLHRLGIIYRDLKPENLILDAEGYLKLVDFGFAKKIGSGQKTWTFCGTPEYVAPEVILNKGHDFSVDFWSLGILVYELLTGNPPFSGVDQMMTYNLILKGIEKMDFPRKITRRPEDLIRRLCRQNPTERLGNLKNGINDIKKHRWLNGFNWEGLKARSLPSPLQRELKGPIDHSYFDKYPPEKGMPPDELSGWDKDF", "UniProt Q6P2M8, sequence (whole entry, looked up)": "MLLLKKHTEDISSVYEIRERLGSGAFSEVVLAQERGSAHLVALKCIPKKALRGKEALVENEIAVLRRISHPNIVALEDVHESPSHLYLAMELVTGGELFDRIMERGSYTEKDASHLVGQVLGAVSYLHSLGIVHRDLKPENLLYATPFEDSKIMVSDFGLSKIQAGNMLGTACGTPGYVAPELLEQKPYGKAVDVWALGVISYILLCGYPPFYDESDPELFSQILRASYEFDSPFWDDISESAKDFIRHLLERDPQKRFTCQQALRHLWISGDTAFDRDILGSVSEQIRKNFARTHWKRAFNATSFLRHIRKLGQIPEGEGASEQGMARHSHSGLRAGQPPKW", "UniProt P06493, sequence (whole entry, looked up)": "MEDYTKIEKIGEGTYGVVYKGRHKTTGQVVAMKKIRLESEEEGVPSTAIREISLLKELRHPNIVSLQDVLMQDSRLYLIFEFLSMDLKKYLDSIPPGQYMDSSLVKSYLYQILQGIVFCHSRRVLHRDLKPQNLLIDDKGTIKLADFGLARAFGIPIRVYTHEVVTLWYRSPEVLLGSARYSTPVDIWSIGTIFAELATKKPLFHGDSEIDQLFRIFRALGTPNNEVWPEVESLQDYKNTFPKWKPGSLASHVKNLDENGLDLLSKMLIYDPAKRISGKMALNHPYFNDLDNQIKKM"}
{"data": "Sample 1", "cell line": "A-375", "concentration": "100 µM", "time": "36 h"}
{"SMILES": "Nc1nc(F)nc2c1ncn2[C@@H]1O[C@H](COP(=O)(O)O)[C@@H](O)[C@@H]1O", "viability": "32.2%"}
{"SMILES": "N[C@@H](CSCCCO)C(=O)O", "viability": "96.7%"}
{"SMILES": "O=C1CCC(N2C(=O)c3ccccc3C2=O)C(=O)N1 (stereo not drawn)", "viability": "115%"}
{"SMILES": "Cc1cc(/C=C/C#N)cc(C)c1Nc1ccnc(Nc2ccc(C#N)cc2)n1", "viability": "19.9%"}
{"SMILES": "c1ccc(Cc2nc3ccccc3[nH]2)cc1", "viability": "73.7%"}
{"SMILES": "Nc1nc2ncc(CNc3ccc(C(=O)N[C@@H](CCC(=O)O)C(=O)O)cc3)nc2c(=O)[nH]1", "viability": "110%"}
{"SMILES": "CCN(CC)CCNC(=O)c1cc(S(C)(=O)=O)ccc1OC", "viability": "76.2%"}
{"SMILES": "O=C(C[S+]([O-])Cc1ccco1)NC/C=C\\COc1cc(CN2CCCCC2)ccn1 (stereo not drawn)", "viability": "98.2%"}
{"SMILES": "CC(C)[C@H](N)C(=O)OCC(CO)OCn1cnc2c(=O)nc(N)[nH]c21 (stereo partly drawn)", "viability": "87.3%"}
{"data": "Sample 2", "SMILES": "CCC(=O)N[C@H]1CC[C@@H](C(=O)N(C)c2ccc(-c3nc4ccccc4o3)cc2)C1", "observed": "cell-free assay", "technique": "competition with immobilised ligand", "concentration": "1 µM"}
{"target": "RET (Homo sapiens, UniProt P07949, V804L)", "remaining binding [%]": 98}
{"target": "STK17A (Homo sapiens, UniProt Q9UEE5)", "remaining binding [%]": 91}
{"target": "MAP3K10 (Homo sapiens, UniProt Q02779)", "remaining binding [%]": 91}
{"target": "KIT (Homo sapiens, UniProt P10721, T670I/V559D)", "remaining binding [%]": 100}
{"target": "KDR (Homo sapiens, UniProt P35968)", "remaining binding [%]": 75}
{"target": "PIM1 (Homo sapiens, UniProt P11309)", "remaining binding [%]": 100}
{"target": "Mast/stem cell growth factor receptor Kit, autoinhibited (KIT, Homo sapiens, UniProt P10721)", "remaining binding [%]": 84}
{"data": "Sample 3", "target": "Bromodomain-containing protein 4, BD1 (BRD4, Homo sapiens, UniProt O60885)", "observed": "acetyl-histone H4 peptide binding", "technique": "AlphaScreen displacement", "concentration": "50 µM"}
{"Compound": "Fc1ccc(-c2[nH]c3ncccc3c2CN2CCCC2)cc1", "inhibition [%]": 23.2}
{"Compound": "N#CC(=Cc1ccco1)c1nc2ccccc2s1", "inhibition [%]": 30.4}
{"Compound": "Cc1c(C(N)=O)sc2nc[nH]c(=O)c12", "inhibition [%]": -3.05}
{"Compound": "COc1cccc(-c2cc(=O)c3ccccc3o2)c1N", "inhibition [%]": -2.7}
{"Compound": "O=C1NC(=O)C(=Cc2ccc(-c3ccc(F)cc3)o2)S1", "inhibition [%]": 0.75}
{"Compound": "COc1ccc(Nc2nccc(-c3cccc(C#N)c3)n2)cc1", "inhibition [%]": 12.2}
{"Compound": "Cc1nc(-c2ccccn2)nc(NCCNc2cc(C(F)(F)F)ccn2)c1Cl", "inhibition [%]": 24.6}
{"Compound": "CC(C)CNc1nccn2c(-c3cccnc3)cnc12", "inhibition [%]": 10.3}
{"data": "Sample 4", "Structure (SMILES)": "CC#CC(=O)Nc1cc2c(Nc3ccc(F)c(Cl)c3)ncnc2cn1", "observed": "enzyme activity", "mode": "inhibitor", "concentration": "0.5 µM", "reference": "control"}
{"target": "PAK3 (Homo sapiens, UniProt O75914)", "remaining activity [%]": 99}
{"target": "MINK1 (Homo sapiens, UniProt Q8N4C8)", "remaining activity [%]": 91.9}
{"target": "RPS6KA4 (Homo sapiens, UniProt O75676)", "remaining activity [%]": 100}
{"target": "KDR (Homo sapiens, UniProt P35968)", "remaining activity [%]": 98.2}
{"target": "MAPK11 (Homo sapiens, UniProt Q15759)", "remaining activity [%]": 96.2}
{"target": "DDR2 (Homo sapiens, UniProt Q16832)", "remaining activity [%]": 108}
{"target": "MET (Homo sapiens, UniProt P08581)", "remaining activity [%]": 96.3}
{"target": "CDC42BPB (Homo sapiens, UniProt Q9Y5S2)", "remaining activity [%]": 96.4}
{"target": "PNCK (Homo sapiens, UniProt Q6P2M8)", "remaining activity [%]": 99.4}
{"target": "ROCK1 (Homo sapiens, UniProt Q13464)", "remaining activity [%]": 96.2}
{"target": "CAMK4 (Homo sapiens, UniProt Q16566)", "remaining activity [%]": 97.4}
{"target": "MARK4 (Homo sapiens, UniProt Q96L34)", "remaining activity [%]": 101}
{"target": "Cyclin-dependent kinase 1, with cyclin A (CDK1, Homo sapiens, UniProt P06493)", "remaining activity [%]": 96.5}
{"target": "MARK2 (Homo sapiens, UniProt Q7KZI7)", "remaining activity [%]": 105}
{"target": "MAP2K1 (Homo sapiens, UniProt Q02750)", "remaining activity [%]": 95.3}
{"target": "PRKG2 (Homo sapiens, UniProt Q13237)", "remaining activity [%]": 105}
{"target": "NEK3 (Homo sapiens, UniProt P51956)", "remaining activity [%]": 76.2}
{"target": "DCLK2 (Homo sapiens, UniProt Q8N568)", "remaining activity [%]": 102}
{"target": "CLK3 (Homo sapiens, UniProt P49761)", "remaining activity [%]": 47.1}
{"target": "TXK (Homo sapiens, UniProt P42681)", "remaining activity [%]": 1.66}
{"target": "PLK3 (Homo sapiens, UniProt Q9H4B4)", "remaining activity [%]": 100}
{"target": "Cyclin-dependent kinase 9, with cyclin K (CDK9, Homo sapiens, UniProt P50750)", "remaining activity [%]": 98.4}
{"target": "MAPK14 (Homo sapiens, UniProt Q16539)", "remaining activity [%]": 101}
{"target": "CLK4 (Homo sapiens, UniProt Q9HAZ1)", "remaining activity [%]": 90.4}
{"note": "Excerpt of the above (sample 3):"}
{"Compound": "Fc1ccc(-c2[nH]c3ncccc3c2CN2CCCC2)cc1", "inhibition [%]": 23.2}
{"Compound": "N#CC(=Cc1ccco1)c1nc2ccccc2s1", "inhibition [%]": 30.4}
{"Compound": "Cc1c(C(N)=O)sc2nc[nH]c(=O)c12", "inhibition [%]": -3.05}
{"Compound": "COc1cccc(-c2cc(=O)c3ccccc3o2)c1N", "inhibition [%]": -2.7}
{"Compound": "O=C1NC(=O)C(=Cc2ccc(-c3ccc(F)cc3)o2)S1", "inhibition [%]": 0.75}
